Measurements from different studies.
± gives the spread as reported.

`COc1c(C)c2c(c(O)c1C/C=C(\C)CCC(=O)O)C(=O)OC2` gave an IC50 of 0.316 µM (MDA-MB-435; cell proliferation; skin cancer).
For `N=C(N)Nc1ccc(NC(=O)c2cc(C(F)(F)F)cc(C(F)(F)F)c2)cc1OCc1ccc(C(F)(F)F)cc1`, the IC50 was > 500 µM (mouse RAW264.7 macrophages; cell viability; 48 h).
`CS(=O)(=O)OCCN(CCBr)c1c(C(=O)NCCO)cc([N+](=O)[O-])cc1[N+](=O)[O-]` has an IC50 of 20.7 µM (sample H B-ALL PDX cells; cytotoxicity; BCP-ALL, ex vivo).
The IC50 of `COc1cc2c(O)c3c(c(-c4ccc5c(c4)OCO5)c2cc1OC)C(=O)N(/N=C/c1cccnc1)C3` is reported as 8.71 ± 0.769 µM (HEK293; endosomal acidification).
The IC50 of `N.N.[Cl][Pt][Cl]` is reported as 66.8 ± 6.26 µM (A549/DDP cisplatin-resistant; MTT; 48 h, non-transfected).
With `N.N.[Cl][Pt][Cl]` the IC50 was 0.59 µM (A3/KAW; cell proliferation, CellTiter-Glo; 72 h).
With `O=C(O)C(Cl)Cl` the IC50 was > 50 µM (2008 ovarian adenocarcinoma, cisplatin-sensitive; MTT; 72 h).
The IC50 of `CO/C1=C\C(C)=C\[C@@H](C)[C@@H](O)[C@@H](C)C/C(C)=C/C=C/[C@H](OC)[C@@H]([C@@H](C)[C@@H](O)[C@H](C)[C@@]2(O)C[C@@H](O)[C@H](C)[C@@H](C(C)C)O2)OC1=O` is reported as 0.0405 ± 0.00331 µM (HEK293; endosomal acidification).
`CC(C)[C@H](NC(=O)[C@H](Cc1c[nH]c2ccccc12)NC(=O)[C@H](Cc1c[nH]cn1)NC(=O)[C@H](CCCNC(=N)N)NC(=O)[C@H](CCCNC(=N)N)NC(=O)[C@H](Cc1c[nH]c2ccccc12)NC(=O)[C@H](Cc1c[nH]c2ccccc12)NC(=O)[C@H](Cc1c[nH]cn1)NC(=O)[C@H](Cc1c[nH]c2ccccc12)NC(=O)[C@H](CCCNC(=N)N)NC(=O)[C@@H](N)CCCCN)C(=O)N[C@H](C(=O)N[C@@H](Cc1c[nH]c2ccccc12)C(N)=O)C(C)C` gave an IC50 of 76 µM (NL20).
The IC50 of `COc1cc2c(O)c3c(c(-c4ccc5c(c4)OCO5)c2cc1OC)C(=O)OC3` is reported as 0.476 ± 0.0601 µM (HEK293; endosomal acidification).
For `CN1CCN(S(=O)(=O)c2cc([N+](=O)[O-])ccc2N(CCOS(C)(=O)=O)CCOS(C)(=O)=O)CC1`, the IC50 was 22.7 µM (sample G B-ALL PDX cells; cell viability; ex vivo; 48 h, added: AKR1C3 inhibitor 1 µM, 1 h pretreatment).
The IC50 of `C#CCCCOc1c2c(c(-c3ccc4c(c3)OCO4)c3cc(OC)c(OC)cc13)C(=O)OC2` is reported as 0.102 ± 0.019 µM (HEK293; endosomal acidification).
The IC50 of `COc1ccc2c(n1)CCN(C(=O)[C@H]1C[C@@H](CC(=O)O)C1)[C@H]2C(=O)Nc1cc(F)c2c(c1)CCC2(C)C` is reported as ≥ 20 µM (HCC70 and MDA-MB-468; cell growth, CellTiter-Glo; 96 h).
The IC50 of `CC(C)C[C@H](NC(=O)[C@H](CO)NC(=O)[C@H](CO)NC(=O)CNC(=O)[C@@H]1CCCN1C(=O)[C@H](Cc1ccc(O)cc1)NC(=O)[C@H](CC(C)C)NC(=O)[C@H](CO)NC(=O)[C@H](CS)NC(=O)[C@H](CC(C)C)NC(=O)[C@@H](N)CC(C)C)C(=O)O` is reported as 71.5 ± 7.56 µM (A-431; cell viability, MTT; 72 h).
With `COc1cc2c(O)c3c(c(-c4ccc5c(c4)OCO5)c2cc1OC)C(=O)N(/N=C/c1ccc(C#N)cc1)C3` the IC50 was > 10 µM (HEK293; endosomal acidification; 4 h).

Some of these lines once more:
`CC(C)[C@H](NC(=O)[C@H](Cc1c[nH]c2ccccc12)NC(=O)[C@H](Cc1c[nH]cn1)NC(=O)[C@H](CCCNC(=N)N)NC(=O)[C@H](CCCNC(=N)N)NC(=O)[C@H](Cc1c[nH]c2ccccc12)NC(=O)[C@H](Cc1c[nH]c2ccccc12)NC(=O)[C@H](Cc1c[nH]cn1)NC(=O)[C@H](Cc1c[nH]c2ccccc12)NC(=O)[C@H](CCCNC(=N)N)NC(=O)[C@@H](N)CCCCN)C(=O)N[C@H](C(=O)N[C@@H](Cc1c[nH]c2ccccc12)C(N)=O)C(C)C` gave an IC50 of 76 µM (NL20).
The IC50 of `C#CCCCOc1c2c(c(-c3ccc4c(c3)OCO4)c3cc(OC)c(OC)cc13)C(=O)OC2` is reported as 0.102 ± 0.019 µM (HEK293; endosomal acidification).
